Results gathered from unrelated publications.
Each line is one published result; not all experiments were run side by side. ± marks the error that the study gave. Converted amounts (≈) assume the structure as drawn.
GBA2: Beta-glucosidase (GBA2, Homo sapiens, UniProt Q9HCG7)
Chain of UniProt Q9HCG7 (whole entry, looked up): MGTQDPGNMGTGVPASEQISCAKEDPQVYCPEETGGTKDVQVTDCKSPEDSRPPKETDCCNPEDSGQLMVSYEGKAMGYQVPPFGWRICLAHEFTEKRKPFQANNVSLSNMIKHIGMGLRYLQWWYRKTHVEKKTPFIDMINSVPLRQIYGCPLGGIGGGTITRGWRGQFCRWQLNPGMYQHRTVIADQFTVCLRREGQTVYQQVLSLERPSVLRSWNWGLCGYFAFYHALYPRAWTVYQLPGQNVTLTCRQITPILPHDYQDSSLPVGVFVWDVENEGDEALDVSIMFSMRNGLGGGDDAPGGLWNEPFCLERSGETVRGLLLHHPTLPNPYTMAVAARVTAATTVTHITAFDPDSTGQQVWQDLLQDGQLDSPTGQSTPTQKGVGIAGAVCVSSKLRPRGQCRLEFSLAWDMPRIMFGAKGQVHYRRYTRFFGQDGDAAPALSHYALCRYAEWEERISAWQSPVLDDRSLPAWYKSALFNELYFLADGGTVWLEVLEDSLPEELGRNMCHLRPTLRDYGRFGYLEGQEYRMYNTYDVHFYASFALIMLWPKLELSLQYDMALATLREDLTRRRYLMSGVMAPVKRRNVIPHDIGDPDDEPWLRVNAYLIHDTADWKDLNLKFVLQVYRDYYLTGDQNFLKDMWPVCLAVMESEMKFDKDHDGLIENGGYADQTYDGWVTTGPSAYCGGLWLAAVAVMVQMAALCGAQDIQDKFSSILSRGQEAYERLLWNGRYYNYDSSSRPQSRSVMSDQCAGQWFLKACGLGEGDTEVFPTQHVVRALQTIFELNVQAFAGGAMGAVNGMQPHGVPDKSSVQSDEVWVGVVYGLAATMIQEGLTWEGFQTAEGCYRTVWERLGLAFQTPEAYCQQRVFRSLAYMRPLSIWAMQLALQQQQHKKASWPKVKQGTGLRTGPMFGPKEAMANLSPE

| Compound | tested on | test | test system | setting | scale | endpoint | value |
| --- | --- | --- | --- | --- | --- | --- | --- |
| OC[C@H]1[C@@H](O)[C@H](O)[C@@H](O)CN1CCCCCOCCC12CC3CC(CC(C3)C1)C2 | GBA2 | inhibitor, 4MU-β-D-glucopyranoside | HEK293T homogenates overexpressing GBA2 |  | baseline: GCS IC50 over GBA2 IC50 | selectivity ratio | 833 |
| Nc1ncc(-c2cc(-c3cnn(CC(F)(F)F)c3)ncc2F)nc1C(=O)NC1CNCC(F)C1 (stereo not shown) | GRK4 | KINOMEscan |  | 1 µM | baseline: DMSO control | remaining binding | 86% |
| C=CC(=O)Nc1cccc(Cn2ncc3cnc(Nc4cnn(CCOC)c4)nc32)c1 | VPS34 human | binding, KINOMEscan |  | 100 nM | lower = stronger binding | percent of control | 21% |
| COC1CN([C@H]2CC[C@H]([C@@]3(C)Oc4c(Cl)cc(C(=O)NCc5c(SC)cc(C)[nH]c5=O)c(C)c4O3)CC2)C1 |  | RNA-seq, refers to: DYNC2H1 mouse homolog | mouse, HT-1376 xenograft, whole blood | dose not given | baseline: vehicle | log2 fold change | 0.7 |
| CO[C@@H]1[C@@H](OC)[C@H]2O[C@H]3[C@H](OC)[C@@H](OC)[C@@H](O[C@H]4[C@H](OC)[C@@H](OC)[C@@H](O[C@H]5[C@H](OC)[C@@H](OC)[C@@H](O[C@H]6[C@H](OC)[C@@H](OC)[C@@H](O[C@H]7[C@H](OC)[C@@H](OC)[C@@H](O[C@@H]1[C@@H](Cn1cc(CCCC(=O)N[C@H]8CCOC8=O)nn1)O2)O[C@@H]7Cn1cc(CCCC(=O)N[C@H]2CCOC2=O)nn1)O[C@@H]6Cn1cc(CCCC(=O)N[C@H]2CCOC2=O)nn1)O[C@@H]5Cn1cc(CCCC(=O)N[C@H]2CCOC2=O)nn1)O[C@@H]4Cn1cc(CCCC(=O)N[C@H]2CCOC2=O)nn1)O[C@@H]3Cn1cc(CCCC(=O)N[C@H]2CCOC2=O)nn1 |  | NMR | water | 20 °C |  | solubility | 8.7 mM (≈ 21.4 mg/mL) |
| C[n+]1ccc(/C=N/NC(=O)C(=O)N/N=C/c2cc[n+](C)c3ccccc23)c2ccccc21 | myc22 MYC G4-DNA parallel | FRET melting |  | 1 µM, K1 buffer, DNA 0.2 µM |  | ΔTm | 3.7 ± 0.5 °C |
| O=C(CCCCCN1C[C@H](O)[C@@H](O)[C@H](O)[C@H]1CO)NC12CC3CC(CC(C3)C1)C2 | GBA2 | inhibitor, 4MU-β-D-glucopyranoside | HEK293T homogenates overexpressing GBA2 |  | baseline: GCS IC50 over GBA2 IC50 | selectivity ratio | 111 |
| COc1cc(O)ccc1CCC(c1ccc(O)cc1)c1cc2c(c(C)c1O)OC(c1ccc(O)cc1)CC2 (mixture of isomers) |  | refers to: arachidonic acid | human whole blood | 30 µM, together with: Escherichia coli |  | amount | 398000 ± 23600 pg/mL blood |
| C[n+]1ccc(/C=N/NC(=O)c2cccc(C(=O)N/N=C/c3cc[n+](C)cc3)n2)cc1 | myc22 MYC G4-DNA parallel | FRET melting |  | 1 µM, K1 buffer, DNA 0.2 µM |  | ΔTm | 5.1 ± 0.3 °C |
| Cc1ncsc1-c1ccc(C(C)NC(=O)C2CC(O)CN2C(=O)C(NC(=O)CCCCCCCCCCN2CCCC(Nc3ncc(Cl)c(Nc4ccccc4S(=O)(=O)C(C)C)n3)C2)C(C)(C)C)cc1 (stereo not shown) | 22Rv1 | RNA-seq, refers to: PER3 mRNA |  | concentration not given | baseline: DMSO | log2 fold change | -1.24 |
| C[n+]1ccc(/C=N/NC(=O)N/N=C/c2cc[n+](C)cc2)cc1 | myc22 MYC G4-DNA parallel | FRET melting |  | 1 µM, K1 buffer, DNA 0.2 µM |  | ΔTm | 2.4 ± 0.6 °C |
| CNS(=O)(=O)Nc1nccc(Cc2c(C)c3ccc(Oc4ncccc4F)cc3oc2=O)c1F | HCC1143 | cell viability |  | 7 days |  | IC50 | > 1000 nM |
| CN1CCCNC(=O)c2cccc(c2)C(=O)NCCCN(C)CCCNc2cccc3c2C(=O)c2cccc(c2C3=O)NCCC1 | SAS | RNA-Seq, refers to: KLF10 mRNA |  | 5 µM, 6 h | baseline: untreated cells | log2 fold change | 2.31 |
